Published values gathered from unrelated publications.
Numbered parts are unrelated; each lists some results of a single study.

Block 1
Target: Fragile X messenger ribonucleoprotein 1, C-terminal low-complexity region (Fmr1, Mus musculus, UniProt P35922)
Method: RNA Bind-n-Seq
Form: RNA
Matrix: in vitro
Tested at: 200 nM
Setting: whole 134-nt RNA, ends assumed
Together with: 150 mM LiCl
Baseline: input library
Direction: higher = stronger binding
Endpoint: log2 enrichment
All molecules: 7-deaza-guanosine replaces G
GGGAGUUCUACAGUCCGACGAUCUUGUUCUGGCAUAAACAUAACAUUGAGAAGUCCCUUGCUGAUCUCCCUAAUUUCACUCCCUUUCCGGAUGAGUGGACAGUGGAAGAUAAAUGGAAUUCUCGGGUGUCAAGG: -0.305
GGGAGUUCUACAGUCCGACGAUCUGUGCUACACAUCGUAUGUACCGAAUCGGGGAAAAAGGGGAAAAAAAGGGGAAAAAAAGGGGAAAGUAUUAUGUUACGCCGUUCGGAUCUUGGAAUUCUCGGGUGUCAAGG: 1.08
GGGAGUUCUACAGUCCGACGAUCGUCCUGUGCUACACAUCGUAUGUACCGAAUCGGGAAAAAAGGGAAAAAAGGAAAAAAGGAAAGUAUUAUGUUACGCCGUUCGGAUCUGCAUGGAAUUCUCGGGUGUCAAGG: -0.0865
GGGAGUUCUACAGUCCGACGAUCUGAAAAUUCUCGACUGGCUGCUGAGGUUUACAAAGACAUGCCGGAAACCAGCUUUACUCGAACCAUUUCUAAUCCUGAGGUGGUUAUGAAUGGAAUUCUCGGGUGUCAAGG: -3.03

Block 2
Target: Histone acetyltransferase KAT6A, both winged helices, GST fusion (KAT6A, Homo sapiens, UniProt Q92794, residues 1-181)
Method: protein binding microarray
Form: double-stranded DNA, one strand shown
Matrix: in vitro
Tested at: not given
Setting: 8-mer, flanks averaged, mean of 2 arrays, mostly near background
Baseline: not given
Direction: higher = stronger binding
Endpoint: E-score
Target sequence (chain): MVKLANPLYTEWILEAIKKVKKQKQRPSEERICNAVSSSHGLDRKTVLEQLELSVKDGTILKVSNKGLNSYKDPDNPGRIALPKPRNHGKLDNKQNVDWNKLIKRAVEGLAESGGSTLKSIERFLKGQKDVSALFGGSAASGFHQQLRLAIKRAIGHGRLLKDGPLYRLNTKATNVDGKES
AGGGCGTA: 0.135
GAGGGGCC: -0.273
AAGGCCTC: -0.171
CCTGTGAG: -0.173
AACGTCCT: -0.000115
AACAGAGA: -0.161
AGTGGCTG: -0.0777
GGATAGCC: -0.00194
GCGAACGC: 0.257
GCGTATGA: 0.204

Block 3
Target: Sal-like protein 4, full length isoform B (SALL4, Homo sapiens, UniProt Q9UJQ4-2, residues 1-616)
Method: universal PBM
Form: double-stranded DNA, one strand shown
Matrix: in vitro
Tested at: not given
Setting: 8-mer, flanks averaged, mean of replicates
Direction: higher = stronger binding
Endpoint: E-score
Construct (chain): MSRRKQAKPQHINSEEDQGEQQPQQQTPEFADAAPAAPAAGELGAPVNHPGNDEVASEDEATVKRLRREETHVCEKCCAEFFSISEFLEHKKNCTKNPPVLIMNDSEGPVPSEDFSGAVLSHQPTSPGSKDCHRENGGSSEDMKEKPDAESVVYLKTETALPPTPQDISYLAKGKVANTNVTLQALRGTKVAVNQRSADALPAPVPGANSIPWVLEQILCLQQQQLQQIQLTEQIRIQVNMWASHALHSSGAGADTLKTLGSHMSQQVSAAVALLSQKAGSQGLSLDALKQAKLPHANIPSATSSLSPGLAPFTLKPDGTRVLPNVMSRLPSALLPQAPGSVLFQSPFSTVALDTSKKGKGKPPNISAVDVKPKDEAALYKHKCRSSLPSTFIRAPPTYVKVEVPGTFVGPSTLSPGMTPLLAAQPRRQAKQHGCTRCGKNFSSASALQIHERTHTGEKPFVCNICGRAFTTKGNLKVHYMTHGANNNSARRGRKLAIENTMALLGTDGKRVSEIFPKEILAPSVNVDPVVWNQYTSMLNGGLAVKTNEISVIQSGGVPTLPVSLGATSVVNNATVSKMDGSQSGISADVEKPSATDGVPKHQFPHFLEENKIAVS
TCGTGTAA: 0.0889
GAAACCTA: -0.00039
GCAAGGCA: -0.0585
GCTGGCAA: -0.161
ACTCAGGA: -0.0857
CTAACCGA: -0.153

Single results of other studies
PhoQ, residues 284 288 289 292 302 303 TLSLKA  fold induction (PhoP, residues 12 14 15 18 19 IQFRS (Escherichia coli, UniProt P23836); Sort-seq, measured: YFP reporter; E. coli; PhoQ-PhoP variant library, together with: 10 µM Mg2+; baseline: high Mg2+ state, higher = stronger signaling): 1.62

Repeated from above (block 2):
CCTGTGAG: -0.173
AACGTCCT: -0.000115
AACAGAGA: -0.161
